Measurements collected from several papers.
Protocols differ between the studies behind these lines.
Molecule type: peptide
HLA class I histocompatibility antigen, A alpha chain: HLA class I histocompatibility antigen, A alpha chain (Homo sapiens, UniProt P04439)
HLA class I histocompatibility antigen, A alpha chain allele A*02:01: HLA class I histocompatibility antigen, A alpha chain, allele A*02:01 (Homo sapiens, UniProt P04439)

| Sequence | target | test | test system | conditions | scale | measurement | value |
| --- | --- | --- | --- | --- | --- | --- | --- |
| FLLVTPHLTK | HLA class I histocompatibility antigen, A alpha chain | peptide-MHC binding, iTopia initial binding | plate-bound HLA heavy chain | 11 µM, 18 h, 21 °C, HLA-A3 allele | relative to: allele-matched positive control peptide | binding | 67% |
| LMFGAPALV | HLA class I histocompatibility antigen, A alpha chain allele A*02:01 | HLA-A2 stabilization, peptide titration | T2 | 20 h, 37 °C, added: human β2-microglobulin 100 ng/mL | relative to: HIVpol reference peptide, lower is stronger | relative affinity | 1.27 |
| TVTLFNVTR | HLA class I histocompatibility antigen, A alpha chain | iTopia initial binding |  | 11 µM, 18 h, 21 °C, HLA-A3 allele | relative to: allele positive control peptide | binding | 23% |
| LIMQLMPFGCL | HLA class I histocompatibility antigen, A alpha chain allele A*02:01 | complex stability, off-rate |  | 37 °C |  | half-life of peptide-HLA complex | 1.7 h |
| ALYDVRTIL | HLA class I histocompatibility antigen, A alpha chain allele A*02:01 | HLA-A2 stabilization, peptide titration | T2 | 20 h, 37 °C, added: human β2-microglobulin 100 ng/mL | relative to: HIVpol reference peptide, lower is stronger | relative affinity | 14.3 |
| VMNILLQYV | HLA class I histocompatibility antigen, A alpha chain allele A*02:01 |  |  | concentration not given |  | peptide exchange | ~86% |
| MQLMPFGCLL | HLA class I histocompatibility antigen, A alpha chain allele A*02:01 | conformational ELISA |  | concentration not given | relative to: positive control peptide, direction not given | binding score | 57.6% |
| GIQNSVSANK | HLA class I histocompatibility antigen, A alpha chain | iTopia initial binding |  | 11 µM, 18 h, 21 °C, HLA-A3 allele | relative to: allele positive control peptide | binding | 51% |
| AMNSLSLYI | HLA class I histocompatibility antigen, A alpha chain allele A*02:01 | HLA-A2 stabilization, peptide titration | T2 | 20 h, 37 °C, added: human β2-microglobulin 100 ng/mL | relative to: HIVpol reference peptide, lower is stronger | relative affinity | 6.78 |
| IMQLMPFG | HLA class I histocompatibility antigen, A alpha chain allele A*02:01 | conformational ELISA |  | concentration not given | relative to: positive control peptide, direction not given | binding score | 7.3% |

Excerpt of the above:
| Sequence | target | test | test system | conditions | scale | measurement | value |
| --- | --- | --- | --- | --- | --- | --- | --- |
| IMQLMPFG | HLA class I histocompatibility antigen, A alpha chain allele A*02:01 | conformational ELISA |  | concentration not given | relative to: positive control peptide, direction not given | binding score | 7.3% |
